{"data": "Experimental data of several laboratories", "EPHA2": "Ephrin type-A receptor 2 (EPHA2, Homo sapiens, UniProt P29317)", "Hepatitis A virus cellular receptor 2": "Hepatitis A virus cellular receptor 2 (Homo sapiens, UniProt Q8TDQ0)", "BTLA": "B- and T-lymphocyte attenuator (BTLA, Homo sapiens, UniProt Q7Z6A9)", "RPA1 N-terminal domain": "Replication protein A 70 kDa DNA-binding subunit, N-terminal domain (RPA1, Homo sapiens, UniProt P27694)", "CD28": "CD28 (Homo sapiens, UniProt P10747)", "note": "Each line is one published result; not all experiments were run side by side. Several values in a cell are separate wells, animals, samples, runs or records. ± gives the spread as reported."}
{"SMILES": "CC(C)Oc1cc(C#N)ccc1C1=N[C@@H](c2cccc(Cl)c2)[C@@H](c2ccc(Cl)cc2)N1C(=O)N1CCNC(=O)C1", "target": "Protein Mdm4 (MDM4, Homo sapiens, UniProt O15151)", "setting": "pH 6.5, 298 K, global fit common resonances", "Kd": "0.6 ± 0.5 µM"}
{"SMILES": "Cc1ccc(C(=O)Nc2cccc(Cl)c2)cc1Nc1nc(-c2cccnc2)nc2c1cnn2C", "target": "EPHA2", "assay": "Kinobeads competition pulldown", "system": "mixed cancer cell lysate", "Kd": "0.129 µM"}
{"SMILES": "C=CCNC1=C2C[C@@H](C)C[C@H](OC)[C@H](O)[C@@H](C)C3OC3(C)[C@H](OC(N)=O)[C@@H](OC)/C=C\\C=C(/C)C(=O)NC(=CC1=O)C2=O (stereo partly shown)", "target": "Endoplasmin (HSP90B1, Homo sapiens, UniProt P14625)", "assay": "binding, fluorescence polarization", "setting": "24 h, 4 °C, with: FITC-geldanamycin", "Kd": "1.13 ± 0.02 µM"}
{"SMILES": "COc1ccc(CCN2CCCC(CN(C)Cc3ccc(C#CC(C)(C)C)cc3)C2)cc1 (stereo not shown)", "target": "Hepatitis A virus cellular receptor 2", "assay": "microscale thermophoresis", "Kd": "0.84 µM"}
{"SMILES": "OC1CCN(c2ncc(-c3cc4ccc(F)cc4[nH]3)cn2)CC1 [isotope labelled]", "target": "Alpha-synuclein, aggregated (SNCA, Homo sapiens, UniProt P37840)", "assay": "binding, homologous saturation binding, Scatchard", "system": "Parkinson's disease brain homogenate", "Kd": "0.089 ± 0.01 µM"}
{"SMILES": "CCOCCCN(C(=O)Cn1nnc2ccccc21)C(C(=O)NC(C)(C)CC)c1cccc(OC)c1 (stereo not shown)", "target": "CD27 antigen (CD27, Homo sapiens, UniProt P26842)", "assay": "binding, microscale thermophoresis", "Kd": "6.92 µM"}
{"SMILES": "COc1cccc(C(=O)Nc2cccc(-c3nc(C)cc(=O)[nH]3)c2)c1", "target": "Cystathionine gamma-synthase 1, chloroplastic (CGS1, Arabidopsis thaliana, UniProt P55217)", "assay": "binding, microscale thermophoresis", "Kd": "14 µM"}
{"SMILES": "Cc1ccc(-c2noc(CCC(=O)NCCc3ccccc3)n2)c(=O)n1C(C)C", "target": "BTLA", "assay": "binding, microscale thermophoresis", "Kd": "1.78 µM"}
{"SMILES": "Cc1cccc(N=Nc2ccc(N)nc2N)c1C", "target": "DNA repair protein REV1, C-terminal domain (Homo sapiens, UniProt Q9UBZ9)", "assay": "microscale thermophoresis", "setting": "cis-trans isomer mixture, with: labelled DNA repair protein REV1 20 nM", "Kd": "32 ± 20 µM"}
{"SMILES": "Cc1cc(-c2ccc3nc(-c4cnn(CC(C)(C)O)c4)nc(N4CCOC[C@@H]4c4ccccc4)c3c2)cn(C)c1=O (single isomer, unassigned)", "target": "CREBBP (Homo sapiens, UniProt Q92793)", "assay": "binding, BROMOscan competition binding", "Kd": "0.032 µM"}
{"SMILES": "Cc1cccc(C2NC(=O)c3c(Cl)cccc3N2)c1 (racemic)", "target": "SMARCA4 (Homo sapiens, UniProt P51532, L1494Y)", "assay": "ITC", "setting": "mutant", "Kd": "12 ± 1 µM"}
{"SMILES": "CC(=O)Nc1ncc(CN2CC[C@H](Oc3cccc(F)n3)C[C@@H]2C)s1 [isotope labelled]", "target": "Protein O-GlcNAcase (OGA, Homo sapiens, UniProt O60502)", "assay": "saturation binding", "system": "human striatum homogenate", "setting": "radiolabelled compound", "Kd": "0.0016 ± 0.0004 µM"}
{"SMILES": "Cc1ccc(NS(=O)(=O)c2cc(C(=O)Nc3ccccc3C(=O)O)ccc2C)cc1C", "target": "RPA1 N-terminal domain", "assay": "binding, fluorescence polarisation competition", "setting": "with: FITC-ATRIP probe", "Kd": "150 ± 11 µM"}
{"SMILES": "Cc1ccnc(NC(=O)c2ccc(-c3nn([C@@H]4CCCN(C(=O)C5CC5)C4)c4ncnc(N)c34)cc2)c1", "target": "Tyrosine-protein kinase BTK, non-phosphorylated (BTK, Homo sapiens, UniProt Q06187)", "assay": "TR-FRET binding kinetics", "setting": "37 °C, unphosphorylated enzyme", "Kd": "0.00259 ± 7e-05 µM"}
{"SMILES": "Cc1ccc(C(=O)Nc2ccc(F)cc2C(=O)O)cc1S(=O)(=O)Nc1ccc(Br)cc1", "target": "RPA1 N-terminal domain", "assay": "binding, fluorescence polarisation competition", "setting": "with: FITC-ATRIP probe", "Kd": "48 ± 8 µM"}
{"SMILES": "Cc1ccc(C(=O)Nc2ccc(CN3CCN(C)CC3)c(C(F)(F)F)c2)cc1Nc1nc(-c2cccnc2)nc2c1cnn2C", "target": "EPHA2", "assay": "binding, microscale thermophoresis", "system": "kinase domain", "setting": "25 °C, 5% DMSO", "Kd": "0.005 µM"}
{"SMILES": "CCCCNC(=S)N(CCCN1CCOCC1)Cc1cc2cc(C)cc(C)c2[nH]c1=O", "target": "Tumor necrosis factor receptor superfamily member 9 (Homo sapiens, UniProt Q07011)", "assay": "binding, microscale thermophoresis", "Kd": "2.04 µM"}
{"SMILES": "Cc1cccc(-c2noc(-c3cn(CC(=O)NCc4ccc5c(c4)OCO5)c4nc(C)ccc4c3=O)n2)c1", "target": "Catenin beta-1, residues 141-305 (CTNNB1, Homo sapiens, UniProt P35222)", "assay": "isothermal titration calorimetry", "setting": "25 °C", "Kd": "2.12 µM"}
{"SMILES": "CCN1CCN(c2nc3ccccc3nc2C(C#N)C(=O)OC2CCCCC2)CC1 (stereo not shown)", "target": "CSNK1A1 (Homo sapiens, UniProt P48729)", "assay": "KINOMEscan binding", "Kd": "2.2 µM"}
{"SMILES": "CCN(C(=O)COc1ccc(Cl)cc1)c1nnc(-c2ccc(C(C)(C)C)cc2)s1", "target": "VSIR (Homo sapiens, UniProt Q9H7M9)", "assay": "microscale thermophoresis", "Kd": "4.94 µM"}
{"SMILES": "CCOc1ccccc1Nc1nnc(SCC(=O)Nc2cc(F)ccc2F)s1", "target": "CD28", "assay": "binding, microscale thermophoresis", "Kd": "6.5 ± 2.8 µM"}
{"SMILES": "CCCCCCCCCCCCCCCC(=O)OC[C@H](COP(=O)(O)O[C@H]1[C@H](O)[C@@H](O)[C@H](OP(=O)(O)O)[C@@H](O)[C@H]1O)OC(=O)CCCCCCCCCCCCCCC", "target": "TUT1 (Homo sapiens, UniProt Q9H6E5)", "assay": "binding, microscale thermophoresis", "system": "lipid micelles", "Kd": "0.414 ± 0.018 µM"}
{"SMILES": "COc1ccc(NC(=O)Nc2nnc(Sc3nc4c(c(=O)n(C)c(=O)n4C)n3C)s2)cc1", "target": "Cyclin-dependent kinase 8, with cyclin C (CDK8, Homo sapiens, UniProt P49336)", "assay": "binding, reporter displacement", "Kd": "0.114 µM"}
{"SMILES": "CN1C(=CC=CC=CC2=[N+](CCCCCC(=O)NCc3cn(CCNC(=O)c4ccc(S[C@@H]5O[C@H](CO)[C@H](O)[C@H](O)[C@H]5O)cc4)nn3)c3ccc(S(=O)(=O)[O-])cc3C2(C)C)C(C)(C)c2cc(S(=O)(=O)O)ccc21", "target": "lecA (Pseudomonas aeruginosa, UniProt Q05097)", "assay": "binding, fluorescence polarization", "setting": "16 h, single titration, with: fluorescent reporter ligand", "Kd": "3.84 µM and 3.95 µM and 4.56 µM"}
{"SMILES": "Cc1cccc(C(=O)Nc2cc(-c3cccc4c3ccn4C)ccc2N2CCN(C)CC2)c1", "target": "WDR5 (Homo sapiens, UniProt P61964)", "assay": "binding, surface plasmon resonance", "Kd": "10 µM"}
{"SMILES": "COc1ccc(OC)c(-c2cc(C(=O)NCCC(O)c3ccc4c(c3)OCO4)n(C)n2)c1 (stereo not shown)", "target": "BTLA", "assay": "binding, microscale thermophoresis", "Kd": "5.26 µM"}
{"SMILES": "O=C(NCc1nc(-c2ccncc2)no1)c1cc2c(cn1)OCCC2", "target": "CD28", "assay": "microscale thermophoresis", "setting": "2% DMSO", "Kd": "24.3 ± 11.8 µM"}
{"SMILES": "Cc1ccc(C(=O)Nc2cc(F)ccc2C(=O)O)cc1S(=O)(=O)Nc1ccc(Cl)c(Cl)c1", "target": "RPA1 N-terminal domain", "assay": "binding, fluorescence polarisation competition", "setting": "with: FITC-ATRIP probe", "Kd": "8 ± 2 µM"}
{"SMILES": "O[C@@H]1[C@H](O)[C@@H]2C[C@@H]2[C@H]1n1cnc2c(NCc3cccc([125I])c3)nc(Cl)nc21", "target": "Adenosine receptor A3 (Mus musculus, UniProt Q61618)", "assay": "binding, saturation binding", "system": "HEK293 cell membranes", "setting": "2 h, room temperature", "Kd": "0.0049 ± 0.00077 µM"}
{"SMILES": "Cc1ccc(C(=O)Nc2ccccc2C(=O)O)cc1S(=O)(=O)NC1CCOCC1", "target": "RPA1 N-terminal domain", "assay": "binding, fluorescence polarisation competition", "setting": "with: FITC-ATRIP probe", "Kd": "> 250 µM"}
{"SMILES": "COc1ccc(CCNC(=O)C2N3C(=O)c4c(ccc(OC)c4OC)C3SC2(C)C)cc1 (stereo not shown)", "target": "BTLA", "assay": "binding, microscale thermophoresis", "Kd": "1.02 µM"}
{"SMILES": "O=C(CCCCCCC(=O)Nc1ccc(-c2c3ccc(=O)cc-3oc3cc(O)ccc23)c(C(=O)O)c1)NO", "target": "HDAC6 (Homo sapiens, UniProt Q9UBN7)", "assay": "binding, fluorescence anisotropy", "setting": "high affinity site", "Kd": "0.2 ± 0.1 µM"}
{"SMILES": "Cc1ccc(C(=O)Nc2ccccc2C(=O)O)cc1S(=O)(=O)Nc1cccc(-c2ccc(Cl)c(Cl)c2)c1", "target": "RPA1 N-terminal domain", "assay": "binding, fluorescence polarisation competition", "setting": "with: FITC-ATRIP probe", "Kd": "4 ± 0.5 µM"}
{"SMILES": "NS(=O)(=O)c1ccc(Cc2c(-c3ccc(F)c(/C=C/C4CCCC4)c3)nn(-c3nc(C(=O)O)cs3)c2CC2CC2)cc1F", "target": "LDHA (Homo sapiens, UniProt P00338)", "assay": "binding, SPR", "setting": "with: NADH", "Kd": "0.00019 µM"}
{"SMILES": "Cc1c(Cc2cccc(OC(C)(C)C(=O)O)c2)c2ccc(C(=O)N[C@H](c3cccc(C(C)(C)C)c3)C(F)(F)F)cc2n1CC(C)C", "target": "PPARG (Homo sapiens, UniProt P37231)", "assay": "TR-FRET competitive binding", "Kd": "0.00105 µM"}
{"SMILES": "O=C(O)c1ccncc1Nc1nn(CCN2CCC(F)(F)CC2)c2ccc(F)cc12", "target": "KDM5A (Homo sapiens, UniProt P29375, del88-347)", "assay": "binding, isothermal titration calorimetry", "Kd": "0.025 to 0.05 µM"}
{"SMILES": "C/C=C/Cn1c(Cc2cc(OC)c(OC)c(OC)c2)nc2c(N)ncnc21", "target": "Heat shock protein HSP 90-beta, N-terminal domain (HSP90AB1, Homo sapiens, UniProt P08238)", "assay": "isothermal titration calorimetry", "setting": "298 K", "Kd": "4.24 µM and 4.2 µM"}
{"SMILES": "Cc1ccc(C(=O)Nc2ccccc2C(=O)O)cc1S(=O)(=O)Nc1ccc(Cl)cc1", "target": "RPA1 N-terminal domain", "assay": "binding, fluorescence polarisation competition", "setting": "with: FITC-ATRIP probe", "Kd": "44 µM"}
{"SMILES": "Nc1nc2c(ncn2COCCNC(=O)CCCCNC(=O)c2cc3cc(Br)ccc3c(Br)c2O)c(=O)[nH]1", "target": "Deoxynucleoside triphosphate triphosphohydrolase SAMHD1, A1 site (SAMHD1, Homo sapiens, UniProt Q9Y3Z3)", "assay": "binding at allosteric site A1, fluorescence anisotropy competition", "setting": "1 µM protein", "Kd": "5 ± 2 µM"}
{"SMILES": "Cc1cc(NC(=O)c2ccc(C)c(S(=O)(=O)Nc3ccc(Cl)c(Cl)c3)c2)c(C(=O)O)cc1C", "target": "RPA1 N-terminal domain", "assay": "binding, fluorescence polarisation competition", "setting": "with: FITC-ATRIP probe", "Kd": "62 ± 3.5 µM"}
{"SMILES": "CC(=NNC(=O)CC12CC3CC(CC(C3)C1)C2)c1cc2c(cc1NC(=O)CCCC(=O)O)OCO2", "target": "Hepatitis A virus cellular receptor 2", "assay": "microscale thermophoresis", "Kd": "1.42 µM"}
{"SMILES": "Cc1ccc(C(=O)Nc2ccccc2C(=O)O)cc1S(=O)(=O)N[C@H]1CC[C@H](C)CC1 (relative stereo)", "target": "RPA1 N-terminal domain", "assay": "binding, fluorescence polarisation competition", "setting": "with: FITC-ATRIP probe", "Kd": "81 ± 10 µM"}
{"SMILES": "COc1ccc(N2CC(=O)C(c3nc(C)cs3)=C2N)c(OC)c1", "target": "His-SUMO-tagged ancestral FSP1", "assay": "surface plasmon resonance", "Kd": "0.199 µM"}
